Measured values pooled from the literature.
Numbered parts are unrelated; each lists some results of a single study. Several values in a cell are separate wells, animals, samples, runs or records.
UniProt Q16816, sequence (whole entry, looked up): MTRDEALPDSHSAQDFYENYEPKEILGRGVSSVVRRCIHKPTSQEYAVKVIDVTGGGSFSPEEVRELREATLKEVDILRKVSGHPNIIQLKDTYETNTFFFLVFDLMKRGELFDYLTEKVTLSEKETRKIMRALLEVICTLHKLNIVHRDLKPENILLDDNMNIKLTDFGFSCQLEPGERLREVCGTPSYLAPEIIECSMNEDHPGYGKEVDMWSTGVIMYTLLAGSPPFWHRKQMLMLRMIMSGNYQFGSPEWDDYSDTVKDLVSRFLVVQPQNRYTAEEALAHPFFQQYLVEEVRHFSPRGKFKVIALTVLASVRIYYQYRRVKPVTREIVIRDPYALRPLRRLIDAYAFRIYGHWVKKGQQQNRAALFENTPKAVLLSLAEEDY
UniProt O75582, sequence (whole entry, looked up): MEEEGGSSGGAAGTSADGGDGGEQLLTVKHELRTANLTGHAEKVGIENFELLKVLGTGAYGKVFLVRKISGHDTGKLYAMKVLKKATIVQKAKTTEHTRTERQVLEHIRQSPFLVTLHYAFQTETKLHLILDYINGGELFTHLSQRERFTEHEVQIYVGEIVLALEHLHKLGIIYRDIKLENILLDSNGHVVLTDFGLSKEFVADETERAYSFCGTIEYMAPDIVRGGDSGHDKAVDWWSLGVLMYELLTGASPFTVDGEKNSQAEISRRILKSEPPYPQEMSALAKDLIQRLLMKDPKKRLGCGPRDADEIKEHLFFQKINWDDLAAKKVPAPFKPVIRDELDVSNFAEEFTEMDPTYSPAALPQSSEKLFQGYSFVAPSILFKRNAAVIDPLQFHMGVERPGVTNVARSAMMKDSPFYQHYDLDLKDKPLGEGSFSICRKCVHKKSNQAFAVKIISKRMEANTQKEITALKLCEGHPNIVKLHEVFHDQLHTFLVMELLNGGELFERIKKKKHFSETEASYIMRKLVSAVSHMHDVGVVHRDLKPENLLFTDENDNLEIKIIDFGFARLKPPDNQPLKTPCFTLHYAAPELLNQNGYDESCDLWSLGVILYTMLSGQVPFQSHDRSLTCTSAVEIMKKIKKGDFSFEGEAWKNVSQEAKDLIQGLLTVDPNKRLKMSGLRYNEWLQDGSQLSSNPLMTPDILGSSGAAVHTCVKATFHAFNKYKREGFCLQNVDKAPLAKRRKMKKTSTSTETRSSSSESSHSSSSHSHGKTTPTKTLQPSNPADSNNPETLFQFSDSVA
UniProt P06493, sequence (whole entry, looked up): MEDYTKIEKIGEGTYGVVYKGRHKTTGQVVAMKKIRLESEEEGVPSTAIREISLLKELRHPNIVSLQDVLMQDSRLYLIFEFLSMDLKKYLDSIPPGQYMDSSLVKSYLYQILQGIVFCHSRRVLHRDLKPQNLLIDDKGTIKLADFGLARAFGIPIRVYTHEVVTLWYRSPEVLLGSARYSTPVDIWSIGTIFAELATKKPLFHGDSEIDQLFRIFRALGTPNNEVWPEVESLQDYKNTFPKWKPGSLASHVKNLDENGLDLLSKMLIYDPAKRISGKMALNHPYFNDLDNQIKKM
UniProt P51451, sequence (whole entry, looked up): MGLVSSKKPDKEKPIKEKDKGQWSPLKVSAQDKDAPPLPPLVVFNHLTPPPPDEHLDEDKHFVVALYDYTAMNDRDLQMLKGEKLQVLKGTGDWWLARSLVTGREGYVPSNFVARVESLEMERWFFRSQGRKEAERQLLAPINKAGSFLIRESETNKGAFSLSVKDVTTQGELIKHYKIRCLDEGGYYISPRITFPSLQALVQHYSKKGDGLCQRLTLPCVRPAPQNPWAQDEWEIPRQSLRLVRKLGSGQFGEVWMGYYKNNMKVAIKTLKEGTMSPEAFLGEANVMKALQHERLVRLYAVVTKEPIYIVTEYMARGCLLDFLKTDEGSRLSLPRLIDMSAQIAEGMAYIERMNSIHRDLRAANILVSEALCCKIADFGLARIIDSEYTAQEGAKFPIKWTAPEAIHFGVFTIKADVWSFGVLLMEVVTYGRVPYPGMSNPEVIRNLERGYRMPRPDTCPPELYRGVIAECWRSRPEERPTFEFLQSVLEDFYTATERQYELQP
UniProt Q99720, sequence (whole entry, looked up): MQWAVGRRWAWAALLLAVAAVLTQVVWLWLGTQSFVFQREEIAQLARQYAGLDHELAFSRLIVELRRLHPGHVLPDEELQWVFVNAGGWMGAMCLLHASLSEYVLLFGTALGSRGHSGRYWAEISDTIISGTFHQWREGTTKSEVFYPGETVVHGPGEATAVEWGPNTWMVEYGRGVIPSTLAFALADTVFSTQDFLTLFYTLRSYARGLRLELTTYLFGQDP
UniProt P11802, sequence (whole entry, looked up): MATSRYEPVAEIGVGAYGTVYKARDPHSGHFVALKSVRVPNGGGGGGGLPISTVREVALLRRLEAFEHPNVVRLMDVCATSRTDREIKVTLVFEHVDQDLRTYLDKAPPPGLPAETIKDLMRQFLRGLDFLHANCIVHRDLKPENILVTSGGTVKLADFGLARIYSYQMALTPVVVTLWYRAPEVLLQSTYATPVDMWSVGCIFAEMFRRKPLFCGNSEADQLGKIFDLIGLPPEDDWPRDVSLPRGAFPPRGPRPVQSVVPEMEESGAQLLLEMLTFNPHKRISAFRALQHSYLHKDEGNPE
UniProt Q00534, sequence (whole entry, looked up): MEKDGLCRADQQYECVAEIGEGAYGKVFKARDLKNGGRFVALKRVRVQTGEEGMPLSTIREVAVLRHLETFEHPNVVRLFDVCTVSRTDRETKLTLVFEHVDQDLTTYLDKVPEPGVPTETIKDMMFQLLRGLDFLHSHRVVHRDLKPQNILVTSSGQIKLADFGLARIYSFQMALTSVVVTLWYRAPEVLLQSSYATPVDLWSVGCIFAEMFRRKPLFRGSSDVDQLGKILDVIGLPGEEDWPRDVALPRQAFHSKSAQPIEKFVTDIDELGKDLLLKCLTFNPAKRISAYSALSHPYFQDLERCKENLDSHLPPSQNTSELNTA
UniProt O75716, sequence (whole entry, looked up): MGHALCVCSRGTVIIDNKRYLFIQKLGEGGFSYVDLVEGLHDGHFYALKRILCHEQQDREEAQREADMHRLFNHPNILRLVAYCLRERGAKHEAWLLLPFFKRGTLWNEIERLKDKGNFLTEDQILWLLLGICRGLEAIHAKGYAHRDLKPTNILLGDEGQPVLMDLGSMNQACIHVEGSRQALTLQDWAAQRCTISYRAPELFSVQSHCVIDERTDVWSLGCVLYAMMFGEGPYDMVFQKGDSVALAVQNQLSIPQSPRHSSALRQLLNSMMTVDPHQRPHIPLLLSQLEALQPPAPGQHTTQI
UniProt Q9H2X6, sequence (whole entry, looked up): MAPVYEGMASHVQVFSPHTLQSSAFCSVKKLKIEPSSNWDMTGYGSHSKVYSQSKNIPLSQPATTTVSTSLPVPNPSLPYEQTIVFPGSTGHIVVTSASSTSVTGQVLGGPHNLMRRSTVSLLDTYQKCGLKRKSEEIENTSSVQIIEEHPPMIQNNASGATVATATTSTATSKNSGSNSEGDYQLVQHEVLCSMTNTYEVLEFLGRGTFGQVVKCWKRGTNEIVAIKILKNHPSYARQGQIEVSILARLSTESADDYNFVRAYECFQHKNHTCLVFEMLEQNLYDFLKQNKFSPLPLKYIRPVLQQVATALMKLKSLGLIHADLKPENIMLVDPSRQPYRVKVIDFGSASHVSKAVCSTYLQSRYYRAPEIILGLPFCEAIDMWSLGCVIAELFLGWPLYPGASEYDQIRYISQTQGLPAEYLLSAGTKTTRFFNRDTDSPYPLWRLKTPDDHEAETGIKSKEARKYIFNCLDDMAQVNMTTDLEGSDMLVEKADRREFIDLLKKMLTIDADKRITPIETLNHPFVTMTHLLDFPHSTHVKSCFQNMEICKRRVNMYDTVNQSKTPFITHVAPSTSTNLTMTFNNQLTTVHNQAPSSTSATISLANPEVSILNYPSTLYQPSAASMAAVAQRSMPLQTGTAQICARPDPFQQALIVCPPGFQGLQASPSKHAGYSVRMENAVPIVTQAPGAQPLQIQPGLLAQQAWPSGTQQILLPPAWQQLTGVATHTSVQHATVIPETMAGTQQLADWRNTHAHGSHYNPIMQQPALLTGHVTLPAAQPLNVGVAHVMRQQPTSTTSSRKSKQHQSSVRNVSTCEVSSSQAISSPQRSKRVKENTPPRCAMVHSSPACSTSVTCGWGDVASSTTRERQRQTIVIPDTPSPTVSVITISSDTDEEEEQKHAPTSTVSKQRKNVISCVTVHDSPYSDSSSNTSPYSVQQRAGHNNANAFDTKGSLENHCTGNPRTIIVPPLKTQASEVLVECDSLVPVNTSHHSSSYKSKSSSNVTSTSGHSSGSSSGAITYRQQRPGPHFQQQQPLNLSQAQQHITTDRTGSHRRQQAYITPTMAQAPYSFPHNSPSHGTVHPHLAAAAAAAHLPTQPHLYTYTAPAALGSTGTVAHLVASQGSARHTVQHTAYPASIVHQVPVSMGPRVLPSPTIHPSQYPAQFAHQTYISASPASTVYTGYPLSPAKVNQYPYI
UniProt P41595, sequence (whole entry, looked up): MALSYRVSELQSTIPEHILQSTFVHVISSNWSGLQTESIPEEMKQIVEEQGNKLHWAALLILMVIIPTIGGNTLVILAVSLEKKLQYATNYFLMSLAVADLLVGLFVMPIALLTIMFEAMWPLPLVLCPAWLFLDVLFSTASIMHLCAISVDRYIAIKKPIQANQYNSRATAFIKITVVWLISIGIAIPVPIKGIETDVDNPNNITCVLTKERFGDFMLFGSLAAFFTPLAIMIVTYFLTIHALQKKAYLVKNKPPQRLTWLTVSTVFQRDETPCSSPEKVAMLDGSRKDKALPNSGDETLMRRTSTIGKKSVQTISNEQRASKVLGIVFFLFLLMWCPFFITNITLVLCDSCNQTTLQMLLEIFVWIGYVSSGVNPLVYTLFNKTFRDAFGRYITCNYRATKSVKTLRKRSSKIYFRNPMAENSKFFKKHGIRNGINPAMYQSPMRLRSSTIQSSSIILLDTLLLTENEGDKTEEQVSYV

Sample 1
Compound: C[C@@H]1[C@H](O)[C@@H](C)/C=C/C=C/C=C/C=C/C=C/C=C/C=C/[C@H](O[C@@H]2O[C@H](C)[C@@H](O)[C@H](N)[C@@H]2O)C[C@@H]2O[C@](O)(C[C@@H](O)C[C@@H](O)[C@H](O)CC[C@@H](O)C[C@@H](O)CC(=O)O[C@H]1C)C[C@H](O)[C@H]2C(=O)O
Cell line: THP-1
Endpoint: inhibition
host cell growth; 0.004 µM: -1.89% and -0.1% and -1.01% and -3.27% and 1.8% and -3.75%
host cell growth; 2 µM: 54% and 57% and 49% and 56%
20 µM, cytotoxicity: 100%
host cell growth; 4 µM: 93% and 99%

Sample 2
SMILES: CO[C@@H](C)c1c(Nc2ccc([C@@H](N(C)C(=O)C3CCS(=O)(=O)CC3)C(F)(F)F)cc2)cnc2cc(Cl)nn12
Concentration: 10 µM
Endpoint: inhibition
TMEM97 (Homo sapiens, UniProt Q5BJF2); binding, radioligand binding: 57.1%
DRD4 (Homo sapiens, UniProt P21917); binding, radioligand binding: -14.1%
HRH3 (Homo sapiens, UniProt Q9Y5N1); binding, radioligand binding: -13.9%
HTR1B (Homo sapiens, UniProt P28222); binding, radioligand binding: 11.4%
CHRM5 (Homo sapiens, UniProt P08912); binding, radioligand binding: 7.57%
ADRA1A (Homo sapiens, UniProt P35348); binding, radioligand binding: -3.44%
SIGMAR1 (Homo sapiens, UniProt Q99720); binding, radioligand binding: 56.8%
HTR2B (Homo sapiens, UniProt P41595); binding, radioligand binding: 9.74%
HTR6 (Homo sapiens, UniProt P50406); binding, radioligand binding: -10.2%
ADRA2A (Homo sapiens, UniProt P08913); binding, radioligand binding: 5.1%
DRD2 (Homo sapiens, UniProt P14416); binding, radioligand binding: -4.3%
HTR1E (Homo sapiens, UniProt P28566); ligand displacement: -16.7%
DRD3 (Homo sapiens, UniProt P35462); binding, radioligand binding: -5.92%
HTR5A (Homo sapiens, UniProt P47898); ligand displacement: -23.6%
HTR1D (Homo sapiens, UniProt P28221); binding, radioligand binding: -3.07%

Sample 3
Structure (SMILES): CCCCc1c(-c2ccc(OC)cc2)[nH]c2nccnc12
Observed: enzyme activity
Mode: inhibitor
Concentration: 0.5 µM
Baseline: control
Endpoint: remaining activity
PDPK1 (Homo sapiens, UniProt O15530): 102%
MAP4K4 (Homo sapiens, UniProt O95819): 66.5%
STK17A (Homo sapiens, UniProt Q9UEE5): 95.5%
EPHB1 (Homo sapiens, UniProt P54762): 76%
TSSK2 (Homo sapiens, UniProt Q96PF2): 93.7%
Cyclin-dependent kinase 4, with cyclin D3 (CDK4, Homo sapiens, UniProt P11802): 69.7%
MAPKAPK3 (Homo sapiens, UniProt Q16644): 98.6%
Cyclin-dependent kinase 1, with cyclin B (CDK1, Homo sapiens, UniProt P06493): 47.8%
RPS6KA6 (Homo sapiens, UniProt Q9UK32): 78.2%
RPS6KA5 (Homo sapiens, UniProt O75582): 104%
PHKG1 (Homo sapiens, UniProt Q16816): 89.4%
EPHB4 (Homo sapiens, UniProt P54760): 89.5%
BLK (Homo sapiens, UniProt P51451): 96.7%
WNK3 (Homo sapiens, UniProt Q9BYP7): 88.4%
ABL1 (Homo sapiens, UniProt P00519): 83.4%
AXL (Homo sapiens, UniProt P30530): 110%
DYRK3 (Homo sapiens, UniProt O43781): 96.1%
Cyclin-dependent kinase 6, with cyclin D3 (CDK6, Homo sapiens, UniProt Q00534): 79.7%
CAMK2B (Homo sapiens, UniProt Q13554): 97.6%
HIPK2 (Homo sapiens, UniProt Q9H2X6): 109%
HIPK4 (Homo sapiens, UniProt Q8NE63): 119%
EPHA4 (Homo sapiens, UniProt P54764): 85.5%
STK16 (Homo sapiens, UniProt O75716): 58.7%
SRMS (Homo sapiens, UniProt Q9H3Y6): 96.7%

Sample 4
Organism: Sarcocystis neurona
Observed: parasite growth
Concentration: 10 µM
Endpoint: inhibition
COCCOC(=O)C1=C(C)NC(C)=C(C(=O)OC(C)C)C1c1cccc([N+](=O)[O-])c1 (stereo not drawn): -22.7%
Cc1[nH]cnc1CN1CCc2c(c3ccccc3n2C)C1=O: -32%
CC(=O)O[C@]1(C(C)=O)CC[C@H]2[C@@H]3C=C(C)C4=CC(=O)CC[C@]4(C)[C@H]3CC[C@@]21C: 6.2%
CCc1oc2ccccc2c1C(=O)c1cc(Br)c(O)c(Br)c1: 2.9%
C[C@@](Cc1ccc(O)c(O)c1)(NN)C(=O)O: -20.2%
CN(C)C(=O)C(CCN1CCC(O)(c2ccc(Cl)cc2)CC1)(c1ccccc1)c1ccccc1: 26.6%
CCN(CC)CC(=O)Nc1c(C)cccc1C: -33.5%
CO[C@H]1/C=C/O[C@@]2(C)Oc3c(C)c(O)c4c(O)c(c(/C=N/N5CCN(C)CC5)c(O)c4c3C2=O)NC(=O)/C(C)=C\C=C\[C@H](C)[C@H](O)[C@@H](C)[C@@H](O)[C@@H](C)[C@H](OC(C)=O)[C@@H]1C: -42.8%
CS(=O)(=O)c1ccc(-c2cc(Br)sc2-c2ccc(F)cc2)cc1: 15%
CCc1nn(CCCN2CCN(c3cccc(Cl)c3)CC2)c(=O)n1CCOc1ccccc1: 67.2%
C[C@]12CCC(=O)C=C1CC[C@@H]1[C@@H]2CC[C@@]2(C)[C@H]1CC[C@]2(O)C(=O)CO: 19.4%
CC(=O)[C@@]1(O)CC[C@H]2[C@@H]3C[C@H](C)C4=CC(=O)C=C[C@]4(C)[C@@]3(F)[C@@H](O)C[C@@]21C: -36.2%
NC(=O)c1ncn([C@@H]2O[C@H](CO)[C@@H](O)[C@H]2O)n1: -29.3%
C[C@@H]1CN(CCCn2c3ccccc3c3ccccc32)C[C@H](C)N1: 11.7%

A few entries again (sample 3):
PHKG1 (Homo sapiens, UniProt Q16816): 89.4%
EPHA4 (Homo sapiens, UniProt P54764): 85.5%
EPHB1 (Homo sapiens, UniProt P54762): 76%
TSSK2 (Homo sapiens, UniProt Q96PF2): 93.7%
CAMK2B (Homo sapiens, UniProt Q13554): 97.6%
Cyclin-dependent kinase 6, with cyclin D3 (CDK6, Homo sapiens, UniProt Q00534): 79.7%
RPS6KA5 (Homo sapiens, UniProt O75582): 104%
